Published values pooled from the literature.
Protocols differ between the studies behind these lines.

CC(C)C[C@H](NC(=O)[C@H](C)NC(=O)[C@@H](NC(=O)[C@H](CCCNC(=N)N)NC(=O)[C@H](CC(C)C)NC(=O)[C@H](Cc1c[nH]c2ccccc12)NC(=O)[C@@H]1CCCN1C(=O)[C@@H](N)CCCCN)C(C)C)C(=O)N[C@@H](CS)C(=O)N1CCC[C@H]1C(=O)NCC(=O)O  MIC (Staphylococcus lentus; broth microdilution; S): 64 µM
CN[C@H](CC(C)C)C(=O)N[C@H]1C(=O)N[C@@H](CC(N)=O)C(=O)N[C@H]2C(=O)NC3C(=O)N[C@H](C(=O)N[C@H](C(=O)NCCC[N+](C)(C)C)c4cc(O)cc(O)c4-c4cc3ccc4O)[C@H](O)c3ccc(c(Cl)c3)Oc3cc2cc(c3OC2OC(CO)C(O)[C@H](O)[C@@H]2O[C@H]2CC(C)(NCc3ccc(-c4ccc(Cl)cc4)cc3)[C@H](O)[C@H](C)O2)Oc2ccc(cc2Cl)[C@H]1O (stereo partly shown)  MIC (Enterococcus faecalis; VanA VRE BM_4166; no LTA, with: Mg2+ 100 µg/mL): 1 µg/mL
N=C(N)NCCC[C@H](NC(=O)CN)C(=O)N[C@@H](Cc1c[nH]c2ccccc12)C(=O)N[C@@H](CCCNC(=N)N)C(=O)N[C@@H](Cc1c[nH]c2ccccc12)C(=O)N[C@@H](Cc1c[nH]c2ccccc12)C(=O)N[C@@H](Cc1c[nH]c2ccccc12)C(=O)N[C@@H](CCCNC(=N)N)C(=O)N[C@@H](Cc1c[nH]c2ccccc12)C(=O)N[C@@H](CCCNC(=N)N)C(=O)N[C@@H](Cc1c[nH]c2ccccc12)C(N)=O  MIC (Candida albicans; broth microdilution; CGMCC 2.209, RPMI 1640-MOPS; 48 h, 30 °C, with: FeCl3 4 µM): 4 µM
CC1(C)SC2C(NC(=O)C(NC(=O)C3=C(O)C4(CC4)NC3=O)c3ccccc3)C(=O)N2C1C(=O)O (stereo not shown)  MIC (Escherichia coli; broth microdilution; Keio mutant JW5086-3; 18 h, ferrienterobactin permease gene): 50 µg/mL
N=C(N)NCCC[C@H](NC(=O)[C@H](Cc1c[nH]c2ccccc12)NC(=O)[C@H](CCCNC(=N)N)NC(=O)[C@H](Cc1c[nH]c2ccccc12)NC(=O)[C@H](Cc1c[nH]c2ccccc12)NC(=O)[C@H](Cc1c[nH]c2ccccc12)NC(=O)[C@H](CCCNC(=N)N)NC(=O)[C@H](Cc1c[nH]c2ccccc12)NC(=O)[C@@H](N)CCCNC(=N)N)C(=O)N[C@@H](Cc1ccccc1)C(N)=O  MIC (Candida albicans; broth microdilution; CGMCC 2.209, RPMI 1640-MOPS; 48 h, 30 °C, with: MgCl2 1 mM): 32 µM
Cc1ncc([N+](=O)[O-])n1CCO  MIC (Bacteroides fragilis): 0.25 to 1 µg/mL
CN[C@H](CC(C)C)C(=O)N[C@H]1C(=O)N[C@@H](CC(N)=O)C(=O)N[C@H]2C(=O)N[C@H]3C(=O)N[C@H](C(=O)N[C@H](C(=O)O)c4cc(O)cc(O)c4-c4cc3ccc4O)[C@H](O)c3ccc(c(Cl)c3)Oc3cc2cc(c3O[C@@H]2O[C@H](CO)[C@@H](O)[C@H](O)[C@H]2O[C@H]2C[C@](C)(N)[C@H](O)[C@H](C)O2)Oc2ccc(cc2Cl)[C@H]1O  MIC (Staphylococcus aureus; MRSA strain 6): 1 µg/mL
CN1CC(O)=C(C(=O)NC(C(=O)NC2C(=O)N3C2SC(C)(C)C3C(=O)O)c2ccccc2)C1=O (stereo not shown)  MIC (Escherichia coli; broth microdilution; isolate IU, CTX-M-14, TEM-1; no clavulanic acid): > 200 µg/mL
C[C@@H](O)[C@H]1C(=O)N2C(C(=O)O)=C(SCCN=CN)C[C@H]12  MIC (Klebsiella pneumoniae; K2; at emergence of KPC-137, with: ceftazidime-avibactam, avibactam fixed): 32 µg/mL
CC1(C)SC2C(NC(=O)C(NC(=O)C3=C(O)CN(c4ccccc4)C3=O)c3ccccc3)C(=O)N2C1C(=O)O (stereo not shown)  MIC (Escherichia coli; broth microdilution; Keio mutant JW0587-1; 18 h, enterobactin-related gene): 100 µg/mL
N=C(N)NCCC[C@H](NC(=O)[C@H](Cc1c[nH]c2ccccc12)NC(=O)[C@H](CCCNC(=N)N)NC(=O)[C@H](Cc1c[nH]c2ccccc12)NC(=O)[C@H](Cc1c[nH]c2ccccc12)NC(=O)[C@H](Cc1c[nH]c2ccccc12)NC(=O)[C@H](CCCNC(=N)N)NC(=O)[C@H](Cc1c[nH]c2ccccc12)NC(=O)[C@H](CCCNC(=N)N)NC(=O)CN)C(N)=O  MIC (Candida albicans; broth microdilution; CGMCC 2.209, RPMI 1640-MOPS; 48 h, 30 °C, with: MgCl2 1 mM): 8 µM
C[C@@H](O)[C@H](NC(=O)[C@H](Cc1ccccc1)NC(=O)[C@H](Cc1c[nH]c2ccccc12)NC(=O)[C@H](Cc1ccccc1)NC(=O)[C@@H](NC(=O)[C@H](Cc1ccccc1)NC(=O)[C@H](CCCNC(=N)N)NC(=O)[C@@H](N)CCCNC(=N)N)[C@@H](C)O)C(=O)N[C@@H](Cc1ccccc1)C(=O)N[C@@H](CCCNC(=N)N)C(=O)N[C@@H](CCCNC(=N)N)C(N)=O  MIC (Lactiplantibacillus plantarum; 7469, probiotic strain; 24 h, 37 °C, tested up to 128 µM): 128 µM
CC(C)[C@H](NC(=O)[C@H](CCCNC(=N)N)NC(=O)[C@H](Cc1c[nH]c2ccccc12)NC(=O)[C@H](CCCNC(=N)N)NC(=O)[C@H](Cc1c[nH]c2ccccc12)NC(=O)[C@H](Cc1c[nH]c2ccccc12)NC(=O)[C@H](Cc1c[nH]c2ccccc12)NC(=O)[C@H](CCCNC(=N)N)NC(=O)[C@H](Cc1c[nH]c2ccccc12)NC(=O)[C@H](CCCNC(=N)N)NC(=O)CN)C(N)=O  MIC (Candida albicans; broth microdilution; CGMCC 2.209, RPMI 1640-MOPS; 48 h, 30 °C, with: NaCl 150 mM): 32 µM
CN[C@H](CC(C)C)C(=O)N[C@H]1C(=O)N[C@@H](CC(N)=O)C(=O)N[C@H]2C(=O)N[C@H]3C(=O)N[C@H](C(=O)N[C@H](C(=O)O)c4cc(O)cc(O)c4-c4cc3ccc4O)[C@H](O)c3ccc(c(Cl)c3)Oc3cc2cc(c3O[C@@H]2O[C@H](CO)[C@@H](O)[C@H](O)[C@H]2O[C@H]2C[C@](C)(N)[C@H](O)[C@H](C)O2)Oc2ccc(cc2Cl)[C@H]1O  MIC (Enterococcus; VRE 700221): > 100 µM
CC(C)(C)OCC1NC(=O)C(C(=O)NC(C(=O)NC2C(=O)N3C2SC(C)(C)C3C(=O)O)c2ccccc2)=C1O (stereo not shown)  MIC (Escherichia coli; broth microdilution; Keio mutant JW0587-1; 18 h, enterobactin-related gene): 25 µg/mL
CSCC[C@H](NC(=O)[C@H](CC(C)C)NC(=O)[C@@H](NC(=O)[C@H](Cc1ccccc1)NC(=O)[C@H](CCCCN)NC(=O)[C@H](CCCNC(=N)N)NC(=O)[C@@H](NC(=O)[C@H](Cc1ccc(O)cc1)NC(=O)[C@H](CCCNC(=N)N)NC(=O)[C@@H](N)CCCNC(=N)N)C(C)C)C(C)C)C(=O)N[C@@H](CCCNC(=N)N)C(=O)O  MIC (Staphylococcus haemolyticus): 50 µg/mL
N=C(N)NCCC[C@H](NC(=O)CN)C(=O)N[C@@H](Cc1c[nH]c2ccccc12)C(=O)N[C@@H](CCCNC(=N)N)C(=O)N[C@@H](Cc1c[nH]c2ccccc12)C(=O)N[C@@H](Cc1c[nH]c2ccccc12)C(=O)N[C@@H](Cc1c[nH]c2ccccc12)C(=O)N[C@@H](CCCNC(=N)N)C(=O)N[C@@H](Cc1c[nH]c2ccccc12)C(=O)N[C@@H](CCCNC(=N)N)C(=O)N[C@@H](Cc1ccccc1)C(N)=O  MIC (Candida albicans; broth microdilution; 56467, RPMI 1640-MOPS; 48 h, 30 °C): 16 µM
CC1(C)SC2C(NC(=O)C(NC(=O)C3=C(O)C4CCCN4C3=O)c3ccccc3)C(=O)N2C1C(=O)O (stereo not shown)  MIC (Escherichia coli; broth microdilution; JW0790-2 fiu deletion mutant; ferric iron uptake gene): 25 µg/mL
CC(C)C[C@H](NC(=O)[C@H](CCCNC(=N)N)NC(=O)[C@H](Cc1c[nH]c2ccccc12)NC(=O)[C@H](CCCNC(=N)N)NC(=O)[C@H](Cc1c[nH]c2ccccc12)NC(=O)[C@H](Cc1c[nH]c2ccccc12)NC(=O)[C@H](Cc1c[nH]c2ccccc12)NC(=O)[C@H](CCCNC(=N)N)NC(=O)[C@H](Cc1c[nH]c2ccccc12)NC(=O)[C@H](CCCNC(=N)N)NC(=O)CN)C(N)=O  MIC (Candida albicans; broth microdilution; SP3902, RPMI 1640-MOPS; 48 h, 30 °C): 32 µM
CC1(C)S[C@@H]2[C@H](NC(=O)[C@H](N)c3ccccc3)C(=O)N2[C@H]1C(=O)O  MIC (Escherichia coli; broth microdilution; Keio mutant JW5195-1; 18 h): 6.25 µg/mL
CC[C@H](C)[C@H](NC(=O)[C@H](CCCNC(=N)N)NC(=O)[C@H](Cc1c[nH]c2ccccc12)NC(=O)[C@H](CCCNC(=N)N)NC(=O)[C@H](Cc1c[nH]c2ccccc12)NC(=O)[C@H](Cc1c[nH]c2ccccc12)NC(=O)[C@H](Cc1c[nH]c2ccccc12)NC(=O)[C@H](CCCNC(=N)N)NC(=O)[C@H](Cc1c[nH]c2ccccc12)NC(=O)[C@H](CCCNC(=N)N)NC(=O)CN)C(N)=O  MIC (Candida albicans; broth microdilution; CGMCC 2.209, RPMI 1640-MOPS; 48 h, 30 °C, with: MgCl2 1 mM): 8 µM
CC1(C)SC2C(NC(=O)C(NC(=O)C3=C(O)C(Cc4ccc([N+](=O)[O-])cc4)NC3=O)c3ccccc3)C(=O)N2C1C(=O)O (stereo not shown)  MIC (Escherichia coli; broth microdilution; Keio mutant JW5195-1; 18 h): 25 µg/mL

Excerpt of the above:
N=C(N)NCCC[C@H](NC(=O)[C@H](Cc1c[nH]c2ccccc12)NC(=O)[C@H](CCCNC(=N)N)NC(=O)[C@H](Cc1c[nH]c2ccccc12)NC(=O)[C@H](Cc1c[nH]c2ccccc12)NC(=O)[C@H](Cc1c[nH]c2ccccc12)NC(=O)[C@H](CCCNC(=N)N)NC(=O)[C@H](Cc1c[nH]c2ccccc12)NC(=O)[C@H](CCCNC(=N)N)NC(=O)CN)C(N)=O  MIC (Candida albicans; broth microdilution; CGMCC 2.209, RPMI 1640-MOPS; 48 h, 30 °C, with: MgCl2 1 mM): 8 µM
C[C@@H](O)[C@H](NC(=O)[C@H](Cc1ccccc1)NC(=O)[C@H](Cc1c[nH]c2ccccc12)NC(=O)[C@H](Cc1ccccc1)NC(=O)[C@@H](NC(=O)[C@H](Cc1ccccc1)NC(=O)[C@H](CCCNC(=N)N)NC(=O)[C@@H](N)CCCNC(=N)N)[C@@H](C)O)C(=O)N[C@@H](Cc1ccccc1)C(=O)N[C@@H](CCCNC(=N)N)C(=O)N[C@@H](CCCNC(=N)N)C(N)=O  MIC (Lactiplantibacillus plantarum; 7469, probiotic strain; 24 h, 37 °C, tested up to 128 µM): 128 µM
